Published values gathered from unrelated publications.
Lines come from different studies, so protocols differ. No end group written: not given here.
B1: rof 1-84 D14A (Escherichia coli, UniProt P0AFW8); chain MNDTYQPINCDDYANLELACQHHLMLTLELKDGEKLQAKASDLVSRKNVEYLVVEAAGETRELRLDKITSFSHPEIGTVVVSES
B2: erenumab; V domains shown; sequence looked up; VH QVQLVESGGGVVQPGRSLRLSCAASGFTFSSFGMHWVRQAPGKGLEWVAVISFDGSIKYSVDSVKGRFTISRDNSKNTLFLQMNSLRAEDTAVYYCARDRLNYYDSSGYYHYKYYGMAVWGQGTTVTVSS; VL QSVLTQPPSVSAAPGQKVTISCSGSSSNIGNNYVSWYQQLPGTAPKLLIYDNNKRPSGIPDRFSGSKSGTSTTLGITGLQTGDEADYYCGTWDSRLSAVVFGGGTKLTVL
B3: UGT1A9 (Homo sapiens, UniProt O60656); chain GKLLVVPMDGSHWFTMRSVVEKLILRGHEVVVVMPEVSWQLGRSLNCTVKTYSTSYTLEDLDREFKAFAHAQWKAQVRSIYSLLMGSYNDIFDLFFSNCRSLFKDKKLVEYLKESSFDAVFLDPFDNCGLIVAKYFSLPSVVFARGILCHYLEEGAQCPAPLSYVPRILLGFSDAMTFKERVRNHIMHLEEHLLCHRFFKNALEIASEILQTPVTEYDLYSHTSIWLLRTDFVLDYPKPVMPNMIFIGGINCHQGKPLPMEFEAYINASGEHGIVVFSLGSMVSEIPEKKAMAIADALGKIPQTVLWRYTGTRPSNLANNTILVKWLPQNDLLGHPMTRAFITHAGSHGVYESICNGVPMVMMPLFGDQMDNAKRMETKGAGVTLNVLEMTSEDLENALKAVINDKSYKENIMRLSSLHKDRPVEPLDLAVFWVEFVMRHKGAPHLRPAAHDLTWYQYHSLDVIGFLLAVVLTVAFITFKCCAYGYRKCLGKKGRVKKAHKSKTH

`B1 (rof 1-84 D14A)` has a terminated transcripts of 86% (rho 1-419 (Escherichia coli, UniProt P0AG30); rho termination, inhibitor; lower = more inhibition).
With `CXCL8 (Homo sapiens, UniProt P10145)` the maximal response was 69.7 DMR (CXCR1 (Homo sapiens, UniProt P25024); label-free dynamic mass redistribution; HEK293T; higher = stronger response).
For `TPDYLMQLMNDKKLMSSLPNFSGIFNHLERLADEEISRVRKDMYNDTLNGSTEK (Qki 14-67 C35S/L45A (Mus musculus, UniProt Q9QYS9))`, the melting temperature was 40 °C (itself; CD thermal melting; 50 µM).
`COX6A2 (Bos taurus, UniProt P07471)`: “urea midpoint for subunit dissociation” 3.6 M (cytochrome c oxidase eight-subunit core (Bos taurus, UniProt P00396); anion exchange chromatography, RP-HPLC, SDS-PAGE; 120 min, pH 7.2, room temperature, apparent, partly coupled to unfolding).
For `VPLPAGGGTVLTKMYPRGNHWAVGHLM-NH2 (GRP mature (UniProt P07492); C-terminal amide)`, the activity decrease was 66 fold (GRPR R308A (Homo sapiens, UniProt P30550); calcium mobilization; peptide, CHO; reference: wild-type receptor, higher = greater loss).
`SGRGK(Ac)GGKGL (histone H4 residues 1-10; acetylated K5)` gave a ΔH of -3.57 kcal/mol (ATAD2 bromodomain 981-1108 C1101A, Cys1057-Cys1079 disulfide (Homo sapiens, UniProt Q6PL18); ITC; peptide).
`DIS3 (Saccharomyces cerevisiae, UniProt Q08162)`: “relative exoribonuclease activity” 8 fold (CSL4/RRP4/RRP40/RRP41/RRP42/RRP46/RRP43/RRP45/MTR3 Exo9 core (Saccharomyces cerevisiae); AU-rich RNA degradation; reference: free Rrp44, lower = less active).
For `cytochrome c5 (Shewanella oneidensis)`, “peroxide turnover rate k1” read 1.6 s⁻¹ (CcP/MBP, two covalent hemes (Shewanella oneidensis); steady-state kinetics; oxidized, MBP-fused, together with: electron donor 4 µM).
The pIC50 of `B2 (erenumab)` is reported as 5.77 (CALCR/RAMP1 on cells (Homo sapiens); cAMP production, antagonist; antibody, HEK293S; no preincubation, together with: αCGRP 3 nM).
The cell proliferation of `FGF2 (Homo sapiens, UniProt P09038)` is reported as 87% (FGFR3 isoform IIIc (unknown, UniProt Q61851); cell proliferation, MTT; BaF3-FGFR3c; 20 nM, 48 h, together with: 2-O desulfated heparin 4.9 µg/mL; reference: FGF 1 with heparin, higher = more proliferation).
`dnaJ (Escherichia coli, UniProt P08622)` gave an ATPase stimulation of 60 fold (dnaK (Escherichia coli, UniProt P0A6Y8); ATPase activity, activator, single turnover ATPase assay; reference: intrinsic activity, higher = more stimulation).
`RGS1 (Arabidopsis thaliana, UniProt Q8H1F2)`: “GAP activity per molecule” 0.00024 min⁻¹ pmol⁻¹ (GPA1 (Arabidopsis thaliana, UniProt P18064); single turnover GTPase assay; nanodiscs).
The EC50 of `HSDGTFTSELSRLREGARLQRLL (SCT 1-23 (Homo sapiens))` is reported as 581 nM (SCTR SNAP-tag fusion, Lumi4-Tb label on SNAP-tag (UniProt P47872); Ca2+ flux, agonist; peptide, CHO-K1).
For `CALM1 holo (Homo sapiens, UniProt P0DP23)`, “heme reduction rate” read 26.3 s⁻¹ (Nos1 (Rattus norvegicus, UniProt P29476); optical stopped-flow; CaM pre-incubated, together with: NADPH, holo CaM).
`Mca-PLGL-Dpa-AR-NH2, N-terminal Mca/Dpa residue 5/C-terminal amide` has a Km of 2.14 µM (MMP14 112-318 (Homo sapiens, UniProt P50281); steady-state kinetics; 37 °C).
`SUV39H1 chromodomain` — result for “firefly luciferase signal”: 2.5e+08 p/s/cm^2/sr (histone H3 1-13, K9 methylated; reporter luciferase; HepG2; wild-type H3-K9, in cells).
`EPEPRLWVVPGALPQV (C10ORF99 66-81 (Homo sapiens))`: “concentration of peak response” 10 nM (GPR15 (Mus musculus, UniProt Q0VDU3); intracellular Ca2+, agonist; peptide, CHO; lower = more potent).
For `NRTN fragment (Homo sapiens)`, “maximal luciferase signal” read 168000 RLU (RET 29-635 (Homo sapiens, UniProt P07949); MAPK signaling, SRE luciferase reporter, agonist; TGW neuroblastoma; higher = stronger signal).
The interaction strength of `UBQLN1 fragment (Homo sapiens)` is reported as 2 fold (PSEN1 loop region (Homo sapiens); beta-galactosidase, two-hybrid; reference: PS2 °C-terminal bait, higher = stronger interaction).
`Tigit fragment (Mus musculus)` has a koff of 0.00602 s⁻¹ (Pvr/IgG1 Fc Fc fusion, extracellular domain (Mus musculus); SPR; avidity, bivalent analyte model).
`BDNF mature (Homo sapiens)`: “dimer stability change” -2.65 kcal/mol (NTRK2 extracellular and transmembrane domains (Homo sapiens); FRET; 380 nM; reference: without ligand, higher = more stable dimer).
`TIMP2 N-terminal domain S4P/I35V/S68N/V71I/H97R` gave a Ki of 106 nM (MMP14 fragment (Homo sapiens); fluorogenic substrate cleavage, inhibitor, enzyme inhibition assay; apparent).
For `ADRB1 (Homo sapiens, UniProt P08588)`, the pERK was 1.46 fold (ADORA1 (Homo sapiens, UniProt P30542); pERK, agonist; HEK-293; 250 nM, 5 min, co-transfected, in cells, together with: CCPA).
With `B3 (UGT1A9)` the Vmax was 0.000219 µmol/min/mg (CN1CC[C@H](c2c(O)cc(O)c3c(=O)cc(-c4ccccc4Cl)oc23)[C@H](O)C1; steady-state kinetics; pH 7.4, 37 °C).
For `EDFRSGSEAFDLIAQDEEEFNKEHQFIQEEN (CEP192 506-536 (Homo sapiens, UniProt Q8TEP8))`, the IC50 was 21000 nM (AURKA kinase domain 123-403, phosphorylated (Homo sapiens, UniProt O14965); competition with labeled peptide, fluorescence polarization; peptide).
With `ribosomes whole ribosome (Rattus norvegicus)` the association response was 105 RU (CRIP3 active 22-286 del163-164/del167-189 (Zea mays, UniProt P28522); SPR; 60 nM).
